Published values gathered from unrelated publications.
Lines come from different studies, so protocols differ. Several values in a cell are separate wells, animals, samples, runs or records. Numbers after ± are the reported error.

SMILES	assay	test system	setting	scale	measurement	result
N#Cc1ccc2c(c1)[C@H]1CCCN(C(=O)c3ccc4[nH]cnc4c3)[C@H]1C2		human, plasma	240 mg once daily, day 21		pre-dose plasma concentration	1810 nmol/L
C[C@H]1CNCCCN1S(=O)(=O)c1cccc2cncc(F)c12		healthy adult men	ocular, 1 drop per eye twice daily, 8 days, adverse event		subjects with conjunctival hyperaemia	100%
CC(C)[C@@H](CS(=O)(=O)C(C)C)N1C(=O)[C@@](C)(CC(=O)O)C[C@H](c2cccc(Cl)c2)[C@H]1c1ccc(Cl)cc1		FVB Abcb1a/b-/- Abcg2-/- mice	intravenous, 20 mg/kg		brain to plasma ratio	0.319
O=Cc1cc2c(cc1F)C(=O)N(C1CCC(=O)NC1=O)C2 (centres unmarked)		CD-1 mice	intravenous, 1 mg/kg, 1 h		plasma concentration	not detected
CNC(=O)c1ccc(-c2cnc3ncc(Cc4ccc5ncccc5c4)n3n2)cc1F		Japanese patients	oral, 400 mg, any grade		Headache dose reduction/interruption	1%
NC/C(=C\F)COc1cccc(Cn2c(=S)[nH]c(=O)c3[nH]cnc32)c1		C57BL/6J mice, kidney	oral, 15 mg/kg single, 6 h		tissue concentration	414 ng/mL
O=C(N[C@H](Cc1c[nH]c2ccccc12)C(=O)Nc1ccncc1)c1ccc(N2CCN(c3ccc(F)cc3F)CC2)cc1F		Swiss Webster mouse, female, heart	oral, 50 mg/kg, 2 h, 20% HPβCD vehicle		concentration	3.87 µM
Cc1cc(Nc2ccc(S(F)(F)(F)(F)F)cc2)n2nc(C(C)(F)F)nc2n1		Plasmodium vivax malaria patients	oral, 800 mg		adverse event Thrombocytopenia	0%
C[C@@H](Nc1cc(F)cc(F)c1)c1cc(C(=O)N(C)C)cc2c(=O)cc(N3CCOCC3)oc12	measured: Vomiting	advanced solid tumour patients	oral, dose not given, dose finding		related serious adverse events	1.6%
CC#CC(=O)N1CCC[C@H]1c1nc(-c2ccc(C(=O)Nc3ccccn3)cc2)c2c(N)nccn12		PBS	100 µM, 23 h, pH 7.45, 37 °C, with: GSH 5 mM		GSH adduct formation	95%
CC(C)Nc1ccnc(Nc2ccccc2-c2ccccc2)n1		MDCKII-WT cells	10 µM, pH 7.4	relative to: Papp B-A over A-B	efflux ratio	0.7
CNc1cc[n+](CCNC(=O)c2ccn3c(-c4c(C)noc4C)cnc3c2)cc1.[Cl-]		aqueous buffer	initial, pH 7		largest degradation product	not detected
Fc1ccc([C@H]2COC[C@H](c3ccc(-c4ccccc4)cc3)N2)cc1	shake-flask, 1-octanol/buffer		pH 7.4		logD	> 4.7
CN1CCCC1CCNS(=O)(=O)c1ccc2c(c1)CN(CC1CCCCC1)CC2 (centres unmarked)		wild-type mouse, plasma	oral in diet, 0.002% in diet, 6 months		Cmin	1.77 ng/mL
C[C@@H](Oc1ccc(S(C)(=O)=O)cc1C(=O)N1C[C@@H]2C[C@]2(c2cc(C(F)(F)F)on2)C1)C(F)(F)F		healthy young humans	oral, 75 mg single dose, geometric mean		%AUC extrapolated	28.2%
O=C(O)CN1CCCN2CCN(CC(=O)O)CCCN(CC1)Cc1cccc(n1)C2		64Cu complex	12 h, pH 7.4, 37 °C, with: DOTA excess		intact complex	96%
O=C(CSc1nnc(-c2ccncc2)o1)Nc1ccc(F)cc1		octanol/buffer	pH 7.4		logD	1.9
c1ccc(-c2ccc([C@H]3COC[C@@H](C4CCCCC4)N3)cc2)cc1	shake-flask, 1-octanol/buffer		pH 7.4		logD	> 4.7
C[Si](C)(C)O[Si](C)(C)C		1-octanol/water	concentration not given		enthalpy of phase change	19.4 kJ/mol

SMILES	assay	test system	setting	scale	measurement	result
C[C@@H]1NC(=O)[C@H](CCCCNC(=O)CO/N=C/C(=O)NCCCC[C@@H]2NC(=O)[C@@H](Cc3ccccc3)NC(=O)[C@H](CC(=O)O)NC(=O)CNC(=O)[C@H](CCCNC(=N)N)NC2=O)NC(=O)CNC(=O)[C@@H]2CCCN2C(=O)[C@H](CCCCNC(=O)CO/N=C/C(=O)NCCCC[C@@H]2NC(=O)[C@@H](Cc3ccccc3)NC(=O)[C@H](CC(=O)O)NC(=O)CNC(=O)[C@H](CCCNC(=N)N)NC2=O)NC(=O)[C@H](CCCCNC(=O)CCNC(=O)CCNC(=O)CCNC(=O)[C@H](CCCCN)NC(=O)[C@H](Cc2ccccc2)NC(=O)CNC(=O)CN2CCCNCCNCCCNCC2)NC(=O)[C@H](CCCCNC(=O)CO/N=C/C(=O)NCCCC[C@@H]2NC(=O)[C@@H](Cc3ccccc3)NC(=O)[C@H](CC(=O)O)NC(=O)CNC(=O)[C@H](CCCNC(=N)N)NC2=O)NC(=O)CNC(=O)[C@@H]2CCCN2C(=O)[C@H](CCCCNC(=O)CO/N=C/C(=O)NCCCC[C@@H]2NC(=O)[C@@H](Cc3ccccc3)NC(=O)[C@H](CC(=O)O)NC(=O)CNC(=O)[C@H](CCCNC(=N)N)NC2=O)NC1=O [copper-64 labelled]	RP-HPLC	radiolabelling buffer	24 h, 37 °C		intact fraction	98.6%
COc1cc2c(cc1OC)CN(CCc1ccc(NC(=O)c3cccc4c(=O)c5cccc(OC)c5[nH]c34)cc1)CC2		Sprague Dawley rats, plasma	iv infusion, 0.89 mg/h/kg, 4 h		free plasma concentration	5.3 ng/mL
CCCOc1ccc(NC(=O)CN2CCN(C)CC2)cc1-c1nc(CC)c(CC)c(=O)[nH]1		healthy Chinese men	10 mg, with: alcohol 0.5 g/kg		headache incidence	13.3%
CNCCOC12CC3(C)CC(C)(CC(Cn4ncc(-c5ccc(N6CCc7cccc(C(=O)Nc8nc9ccccc9s8)c7C6)nc5C(=O)O)c4C)(C3)C1)C2		beagle dog, male, anaesthetised	intravenous bolus, 0.03 mg/kg, 15 min	relative to: baseline	dP/dt at 50 change	10%
CN1CCN(c2cccc(-c3ccc4ncnc(Nc5ccc(Cl)c(Cl)c5)c4c3)c2)CC1		human liver microsomes			CLint	< 3 µL/min/mg
CC(C)c1c(C(=O)Nc2ccc(O)cc2)c(-c2ccccc2)c(-c2ccc(F)cc2)n1CC[C@@H](O)C[C@@H](O)CC(=O)O	reverse phase LC, C18	acetonitrile gradient, 0.1% formic acid	converted from retention time	relative to: Valko CHI standards	chromatographic hydrophobicity index	78.2
COc1ccccc1OCC(O)CN1CCN(CC(=O)Nc2c(C)cccc2C)CC1 (centres unmarked)		human, plasma	oral, 12 mg/kg/day every 6 h		trough plasma concentration	146 ng/mL
O=C(O)CCC(=O)O.[2H]C([2H])([2H])Oc1cc(C)c2[nH]ccc2c1CN1CC[C@@H](C2CC2)C[C@H]1c1ccc(C(=O)O)cc1		healthy Chinese subjects	400 mg, single ascending dose		TEAE sinus bradycardia	0%
Nc1ncnc2c1ncn2[C@H]1C[C@@H]2OP(=O)(O)OC[C@H]3O[C@@H](n4cnc5c(N)ncnc54)C[C@@H]3OP(=O)(O)OC[C@H]2O1		non-tumor-bearing mice, blood	intravenous, 1 mg/kg, toxicity study		lymphocyte percentage	79.4 ± 4.69%
CNCc1ccc(-c2[nH]c3cc(F)cc4c3c2CCNC4=O)cc1	measured: Nausea	human patients	oral, dose not given, all grades, all doses		patients with adverse event	51.8%
CC1(CNC(=O)c2ccc(-c3ccccc3)cc2)NC(=O)NC1=O (centres unmarked)		octanol/buffer	pH 7.4		logD	2.36
Cc1cc(-c2nccc3c2ccn3CC(=O)Nc2ccc(-c3cnccn3)cn2)ccn1		human	20 mg once daily, multiple ascending dose		subjects with suture rupture	0%
Cc1cc(NC2CCN(C(=O)OC3CCN(C(=O)/C=C/CN(C)C)C3)CC2)n2ncc(C(C)C)c2n1 (centres unmarked)	CTCAE v4.0, measured: Ascites	patients with advanced solid tumours	oral, dose not given, TIW, grade 3 or higher		patients with TEAE	0%
O=C(Nc1nc2cccc(-c3ccc(CN4CCS(=O)(=O)CC4)cc3)n2n1)C1CC1	measured: chills	human rheumatoid arthritis patients	oral, 300 mg once daily, 4 weeks, regardless of relatedness		treatment-emergent adverse events	5%
OCc1nc2ccc(NCc3ccc(C(F)(F)F)cc3)cc2[nH]1		Balb/c mouse, male, liver	intravenous, 1 mg/kg, 48 h		tissue concentration	1.7 ± 0.2 ng/g
Clc1cc(Cl)cc([C@@H]2COC[C@H](C3CCCCC3)N2)c1	shake-flask, 1-octanol/buffer		pH 7.4		logD	> 4.7
C[C@@H](O)[C@H](NC(=O)c1ccc(-c2ccc(Br)cc2)cc1)C(=O)NO		octanol/buffer	pH 7.4		logD	2.77
CN(CCC#N)C1CCN(C(=O)Cn2cc(NC(=O)c3cnn4cccnc34)c(-c3cc(Cl)ccc3OC(F)F)n2)CC1		human	15 mg twice daily, day 42	relative to: baseline	LDL cholesterol change	-3.9 mg/dL
CN(CCC(=O)O)C(=O)c1ccc2c(c1)CC[C@@H]1[C@@H]2CC[C@]2(C)C(c3cncc(F)c3)=CC[C@@H]12		premenopausal women, endometriosis pain, serum	60 mg twice daily, visit 5, mean	relative to: baseline	direct bilirubin change	0.246 mg/dL

SMILES	assay	test system	setting	scale	measurement	result
CCNC(=O)[C@@H]1CCCN1C(=O)[C@H](CCCNC(=N)N)NC(=O)[C@H](CC(C)C)NC(=O)[C@@H](CC(C)C)NC(=O)[C@H](Cc1ccc(O)cc1)NC(=O)[C@H](CO)NC(=O)[C@H](Cc1c[nH]c2ccccc12)NC(=O)[C@H](Cc1c[nH]cn1)NC(=O)[C@@H]1CCC(=O)N1		healthy female volunteers	dose not given, all treatment groups combined		headache incidence	43%
CC(C)(C(=O)N1CCOc2c(C#N)cncc2C1)C(F)F		human, both sexes	oral, 20 mg single dose		subjects with dizziness TEAE	0%
C[C@H]1CN(C(=O)CC#N)[C@]12CCN(c1ncnc3[nH]ccc13)C2		healthy human	oral, 6 mg single		subjects with Paraesthesia	0%
CCn1cc(C(=O)N2CCOCC2)c(=O)c2cc(NC3Cc4ccccc4C3)cnc21		human, fed	oral suspension, 2000 mg single dose, median		Tmax	6 h
CCOC(=O)N1C[C@@H](C2CCCCC2)N[C@@H](C(CC)CC)C1	shake-flask, 1-octanol/buffer		pH 7.4		logD	> 4.7
Cn1cnc2c(F)c(Nc3ccc(Br)cc3Cl)c(C(=O)NOCCO)cc21	population PK model	human, plasma	oral, nonlinear absorption model, fed		absorption lag time	0.62 h
CC(C)NCCCC[C@@H]1NC(=O)[C@H](Cc2ccc(O)cc2)NC(=O)[C@H](Cc2ccccc2)NC(=O)CC[C@H](C(=O)N[C@@H](CCCCNC(C)C)C(=O)N[C@@H](CCCCNC(=O)[C@H](CCC(=O)O)NC(=O)[C@H](CCC(=O)O)NC(=O)[C@H](CCC(=O)O)NC(=O)CN2CCN(CC(=O)O)CCN(CC(=O)O)CCN(CC(=O)O)CC2)C(N)=O)NC(=O)CNC(=O)[C@H](Cc2ccc3ccccc3c2)NC(=O)[C@@H](CCCNC(=N)N)NC1=O [gallium-68 labelled]		mouse with Daudi xenograft, spleen	intravenous, 1 h		tissue uptake	0.47 %ID/g
Cl.[2H]C([2H])([2H])CC(=O)c1cnc(NC(=O)C2CC2)cc1Nc1cccc(-c2ncn(C([2H])([2H])[2H])n2)c1OC	geometric mean	human	oral, 40 mg twice daily, day 7, fed, liquid, multiple dose		half-life	8.41 h
O=C(O)CCCOc1ccc([18F])cc1-c1cc(-c2ccccc2C(F)(F)F)n(-c2ccccc2)n1	gamma counting	male ddY mice, brain	intravenous, 2.1 MBq, 5 min		radioactivity uptake	0.19 ± 0.01 SUV
COc1cc(Nc2ncc3c(n2)-c2ccc(Cl)cc2C(c2c(F)cccc2OC)=NC3)ccc1C(=O)O		patients	oral, dose not given, grade 2, any attribution, with: pembrolizumab		decreased lymphocyte count incidence	50%
COc1cc2c3c(n(CCCN4CCOCC4)c(=O)c2cc1OC)-c1cc2c(cc1C3=O)OCO2		beagle dog, female, plasma	oral, 860 mg/m^2, gelatin capsule		CL/F	50 L/h/m² and 43600 L/h/m²
O=C(/C=C/CN1CCCCC1)Nc1cc2c(Nc3ccc(F)c(Cl)c3)ncnc2cc1O		human, plasma	oral, 30 mg dacomitinib		metabolite to parent AUC(0-inf) ratio	0.478
COc1cc2nccc(Oc3ccc(NC(=O)c4cc5c(n(-c6ccccc6)c4=O)CCCC5=O)nc3)c2cc1OC		relapsed or refractory AML	oral, all dose levels		grade ≥3 Pneumonia patients	25%
Oc1ccc(/C=C/c2cc(O)cc(O)c2)cc1		rat, azoxymethane-injected, blood at sacrifice	10 mg/kg		total cholesterol	70 mg/dL and 75 mg/dL and 76 mg/dL
Cc1ccc([C@@H]2O[C@H](CO)[C@@H](O)[C@H](O)[C@H]2O)cc1Cc1ccc(-c2ccc(F)cc2)s1		Japanese type 2 diabetes patients	100 mg, day 1, 24 h urine collection	relative to: baseline	urinary magnesium excretion change	-18.3 mg
CCO[C@H]1CCN(Cc2c(OC)cc(C)c3[nH]ccc23)[C@H](c2ccc(C(=O)O)cc2)C1		human moderate hepatic impairment, plasma	oral, 200 mg single dose, geometric mean		unbound AUC(0-12)	4.43 µg·h/mL
C=CC(=O)Nc1cc(Nc2nccc(-c3cn(C)c4ccccc34)n2)c(OC)cc1N(C)CCN(C)C	UHPLC-MS/MS	human, plasma	oral, 80 mg once daily		trough concentration	286 ng/mL and 223 ng/mL and 210 ng/mL and 248 ng/mL and 173 ng/mL and 249 ng/mL and 201 ng/mL
CCN1/C(=C/C(C)=O)Sc2ccc(F)cc21		cynomolgus monkey	oral, 10 mg/kg, 2 h post-dose		PR interval	92 ± 2 ms

Excerpt of the above:
SMILES	assay	test system	setting	scale	measurement	result
C[C@@H](Nc1cc(F)cc(F)c1)c1cc(C(=O)N(C)C)cc2c(=O)cc(N3CCOCC3)oc12	measured: Vomiting	advanced solid tumour patients	oral, dose not given, dose finding		related serious adverse events	1.6%
CC#CC(=O)N1CCC[C@H]1c1nc(-c2ccc(C(=O)Nc3ccccn3)cc2)c2c(N)nccn12		PBS	100 µM, 23 h, pH 7.45, 37 °C, with: GSH 5 mM		GSH adduct formation	95%
CC(C)Nc1ccnc(Nc2ccccc2-c2ccccc2)n1		MDCKII-WT cells	10 µM, pH 7.4	relative to: Papp B-A over A-B	efflux ratio	0.7
CNc1cc[n+](CCNC(=O)c2ccn3c(-c4c(C)noc4C)cnc3c2)cc1.[Cl-]		aqueous buffer	initial, pH 7		largest degradation product	not detected
Fc1ccc([C@H]2COC[C@H](c3ccc(-c4ccccc4)cc3)N2)cc1	shake-flask, 1-octanol/buffer		pH 7.4		logD	> 4.7
CN1CCCC1CCNS(=O)(=O)c1ccc2c(c1)CN(CC1CCCCC1)CC2 (centres unmarked)		wild-type mouse, plasma	oral in diet, 0.002% in diet, 6 months		Cmin	1.77 ng/mL
C[C@@H](Oc1ccc(S(C)(=O)=O)cc1C(=O)N1C[C@@H]2C[C@]2(c2cc(C(F)(F)F)on2)C1)C(F)(F)F		healthy young humans	oral, 75 mg single dose, geometric mean		%AUC extrapolated	28.2%
O=C(O)CN1CCCN2CCN(CC(=O)O)CCCN(CC1)Cc1cccc(n1)C2		64Cu complex	12 h, pH 7.4, 37 °C, with: DOTA excess		intact complex	96%
O=C(CSc1nnc(-c2ccncc2)o1)Nc1ccc(F)cc1		octanol/buffer	pH 7.4		logD	1.9
